Assay results pooled from the literature.
Several values in a cell are separate wells, animals, samples, runs or records. Numbers after ± are the reported error.

`O=C(NS(=O)(=O)c1cccs1)c1cc2ccccc2n1Cc1ccc(Br)c2ccccc12` has an MTD of greater than 1000 mg/kg (Kunming mice both sexes; oral).
`Cc1ccccc1-c1ccc(-c2nc(-c3ccc(CN(C)CCCC(=O)O)c([18F])c3)no2)cc1C(F)(F)F` gave a tracer uptake of 0.38 %ID/g (rat, brain; 2 h).
For `COC(=O)[C@@H](NC(=O)c1nn(Cc2ccc(F)cc2)c2cc(OCCCCNC(=N)N)ccc12)C(C)(C)C`, “dose producing thermal antinociception” read 30 mg/kg (tail-flick test; mouse; intraperitoneal).
For `COCCN(C(=O)[C@H](C)N(Cc1ccccc1)C(C)=O)[C@@H](C)C(=O)N(Cc1c[nH]c2cc(Cl)ccc12)[C@@H](C)C(=O)N(CCOC)[C@@H](C)C(=O)N(CCC(C)(C)C)[C@@H](C)C(N)=O`, the Papp was 0.22 ×10⁻⁶ cm/s (PAMPA; 10 µM, 4 h, pH 7.4).
The unbound Vdss of `CCCC[C@@H]1NC(=O)[C@H](Cc2ccc(O)cc2)NC(=O)[C@@H]2CCCN2C(=O)[C@H](CC(=O)O)NC(=O)[C@H](C)NC(=O)[C@H](Cc2ccccc2)NC(=O)[C@@H]2CSCCC(=O)N3CN(CN(C3)C(=O)CCSC[C@@H](C(=O)N[C@@H](C)C(N)=O)NC1=O)C(=O)CCSC[C@H](NC(C)=O)C(=O)N[C@@H](CC(C)(C)C)C(=O)N1CCC[C@H]1C(=O)N[C@@H](CCC(=O)O)C(=O)N[C@H](CCCCNC(=O)CCc1cn(CCOCCOCCOCCN(CCOCCOCCOCCC(=O)N[C@H]3CSCCC(=O)N4CN5CN(C4)C(=O)CCSC[C@H](NC(=O)[C@@H](CC(=O)O)NC(=O)[C@H](Cc4cccc6ccccc46)NC(=O)[C@@H]4CCCN4C3=O)C(=O)N[C@@H](CCSC)C(=O)N[C@@H](CCCCNC(=N)N)C(=O)N[C@@H](CC(=O)O)C(=O)N[C@@H](Cc3c[nH]c4ccccc34)C(=O)N[C@@H](CO)C(=O)N[C@@H]([C@@H](C)O)C(=O)N3CCC[C@H]3C(=O)N3C[C@H](O)C[C@H]3C(=O)N[C@@H](Cc3c[nH]c4ccccc34)C(=O)N[C@H](C(N)=O)CSCCC5=O)CCOCCOCCOCCn3cc(CCC(=O)NCCCC[C@H]4NC(=O)[C@H](CCC(=O)O)NC(=O)[C@@H]5CCCN5C(=O)[C@H](CC(C)(C)C)NC(=O)[C@@H](NC(C)=O)CSCCC(=O)N5CN6CN(C5)C(=O)CCSC[C@H](NC(=O)[C@H](Cc5ccc(O)cc5)NC(=O)[C@@H]5CCCN5C4=O)C(=O)N[C@@H](Cc4ccccc4)C(=O)N[C@@H](C)C(=O)N[C@@H](CC(=O)O)C(=O)N4CCC[C@H]4C(=O)N[C@@H](Cc4ccc(O)cc4)C(=O)N[C@@H](CCCC)C(=O)N[C@H](C(=O)N[C@@H](C)C(N)=O)CSCCC6=O)nn3)nn1)C(=O)N1CCC[C@H]1C(=O)N[C@@H](Cc1ccc(O)cc1)C(=O)N2` is reported as 7 L/kg (Sprague-Dawley rat).
Under “mean tissue distribution”, `CSCC[C@H](N)C(=O)N[C@@H](C)C(=O)N[C@@H](CCCNC(=N)N)C(=O)N[C@@H](CCCNC(=N)N)C(=O)N[C@@H](CC(=O)O)C(=O)N[C@@H](CCCCN)C(=O)N[C@H](C(=O)N[C@@H](CC(=O)O)C(=O)N[C@@H](Cc1ccccc1)C(=O)N[C@@H](C)C(=O)N[C@@H](CCCNC(=N)N)C(=O)N[C@@H](CCCNC(=N)N)C(=O)N[C@@H](CCCNC(=N)N)C(=O)N[C@@H](CCCNC(=N)N)C(=O)NCCCCCC(=O)NCCCCC(NC(=O)CCCCCNC(=O)[C@H](CCCNC(=N)N)NC(=O)[C@H](CCCNC(=N)N)NC(=O)[C@H](CCCNC(=N)N)NC(=O)[C@H](CCCNC(=N)N)NC(=O)[C@H](C)NC(=O)[C@H](Cc1ccccc1)NC(=O)[C@H](CC(=O)O)NC(=O)[C@@H](NC(=O)[C@H](CCCCN)NC(=O)[C@H](CC(=O)O)NC(=O)[C@H](CCCNC(=N)N)NC(=O)[C@H](CCCNC(=N)N)NC(=O)[C@H](C)NC(=O)[C@@H](N)CCSC)[C@@H](C)O)C(=O)NCCCCC(NC(=O)C(CCCCNC(=O)CCCCCNC(=O)[C@H](CCCNC(=N)N)NC(=O)[C@H](CCCNC(=N)N)NC(=O)[C@H](CCCNC(=N)N)NC(=O)[C@H](CCCNC(=N)N)NC(=O)[C@H](C)NC(=O)[C@H](Cc1ccccc1)NC(=O)[C@H](CC(=O)O)NC(=O)[C@@H](NC(=O)[C@H](CCCCN)NC(=O)[C@H](CC(=O)O)NC(=O)[C@H](CCCNC(=N)N)NC(=O)[C@H](CCCNC(=N)N)NC(=O)[C@H](C)NC(=O)[C@@H](N)CCSC)[C@@H](C)O)NC(=O)CCCCCNC(=O)[C@H](CCCNC(=N)N)NC(=O)[C@H](CCCNC(=N)N)NC(=O)[C@H](CCCNC(=N)N)NC(=O)[C@H](CCCNC(=N)N)NC(=O)[C@H](C)NC(=O)[C@H](Cc1ccccc1)NC(=O)[C@H](CC(=O)O)NC(=O)[C@@H](NC(=O)[C@H](CCCCN)NC(=O)[C@H](CC(=O)O)NC(=O)[C@H](CCCNC(=N)N)NC(=O)[C@H](CCCNC(=N)N)NC(=O)[C@H](C)NC(=O)[C@@H](N)CCSC)[C@@H](C)O)C(N)=O)[C@@H](C)O` (some centres unmarked) is recorded as 1.15% (C57BL/6 mouse female, pancreas; dose not given, 3 h; baseline: total).
`CC[C@H](C)[C@H](NC(=O)[C@H](CO)NC(=O)[C@H](Cc1ccc(O)cc1)NC(=O)[C@H](Cc1ccc(O)cc1)NC(=O)[C@H](CC(N)=O)NC(=O)CNC(=O)[C@H](CO)NC(=O)[C@H](Cc1ccc(O)cc1)NC(=O)[C@H](CO)NC(=O)[C@H](CO)NC(=O)[C@H](CC(N)=O)NC(=O)COCCOCCNC(=O)CN1CCN(CC(=O)O)CCN(CC(=O)O)CCN(CC(=O)O)CC1)C(=O)N[C@@H](CC(C)C)C(N)=O` [copper-64 labelled] gave a tumour uptake of 5.58 %ID/mL (dynamic PET; mouse, tamoxifen-induced PDAC, blood; intravenous, 0.1 µg/mouse, 12.5 min).
For `N#[11C]c1ccc(-c2csc(NN=C3CCCC3)n2)cc1`, the radioactivity uptake was 4.43 %ID/g (C57BL/6 mice, male, brain; intravenous, 3 MBq, 1 min).
The tissue uptake of `CSCC[C@H](NC(=O)CNC(=O)[C@H](CCCCN)NC(=O)[C@H](CC(C)C)NC(=O)[C@@H]1CCCN1C(=O)[C@H](CO)NC(=O)[C@H](Cc1c[nH]cn1)NC(=O)[C@H](Cc1c[nH]c2ccccc12)NC(=O)[C@H](CCCNC(=N)N)NC(=O)[C@H](CC(C)C)NC(=O)[C@H](CCCNC(=N)N)NC(=O)[C@H](Cc1c[nH]c2ccccc12)NC(=O)[C@H](CS)NC(=O)CCCCCNC(=O)CN1CCN(CC(=O)O)CCN(CC(=O)O)CCN(CC(=O)O)CC1)C(=O)O` [copper-64 labelled] is reported as 3.17 %ID/g (ex vivo biodistribution; C57BL/6J mice bearing B16-F10 tumours, tumour; intravenous, 1.85 MBq, 18 h).
The tissue concentration of `COc1cccc(O)c1C(=O)/C=C/c1ccc2cc(N3CCCC3)ccc2c1` is reported as 158 ng/g (C57BL/6J mice, kidney; intraperitoneal, 50 mg/kg single, 4 h).
`CC(C)=CCC/C(C)=C\CCn1cc(CC(C)(P(=O)(O)O)P(=O)(O)O)nn1`: mRNA level “increased” (qRT-PCR, refers to: Slco1b2 and Cyp3a11; CD-1 mice, liver; intravenous, 0.3 mg/kg; baseline: control).
`CC[C@H](C)[C@H](NC(=O)[C@H](CCCCN)NC(=O)CNC(=O)[C@H](CC(C)C)NC(=O)[C@H](Cc1ccccc1)NC(=O)[C@H](CCCCN)NC(=O)[C@H](CO)NC(=O)[C@H](Cc1ccccc1)NC(=O)[C@H](Cc1c[nH]c2ccccc12)NC(=O)[C@H](CCC(N)=O)NC(=O)[C@@H](NC(=O)[C@H](Cc1ccccc1)NC(=O)CCCCCNC(=O)CN1CCN(CC(=O)O)CCN(CC(=O)O)CCN(CC(=O)O)CC1)C(C)C)C(=O)N[C@@H](CCC(=O)O)C(=O)N1CCC[C@H]1C(=O)N[C@@H](CC(=O)O)C(=O)N[C@H](C(=O)N[C@@H](CO)C(=O)N[C@@H](CCC(N)=O)C(=O)N[C@H](C(=O)N[C@@H](CCC(N)=O)C(=O)N[C@@H](CC(=O)O)C(=O)N1CCC[C@H]1C(=O)N[C@@H](CC(N)=O)C(=O)N[C@@H](CC(=O)O)C(=O)N[C@@H](CCC(N)=O)C(=O)N[C@@H](Cc1ccc(O)cc1)C(=O)N[C@@H](CCC(=O)O)C(=O)N1CCC[C@H]1C(=O)N[C@@H](Cc1ccccc1)C(=O)O)C(C)C)C(C)C` [copper-64 labelled] has an SUVmean of 0.11 SUV (dynamic PET; mouse both sexes, CT26 tumour, checkpoint inhibitor-treated, tumour; intravenous, 100 µCi/mouse, 10 s).
With `N#Cc1c(Cl)ccc2c1C1(CCN(C(=O)c3cnc4[nH]ncc4c3)CC1)C(=O)N2CC(=O)NCC(F)(F)F` the CLint was 17 µL/min/mg protein (mouse liver microsomes).
For `COc1cnc2cccc(N3CCc4c(cc(Cn5ccnc5)cc4-c4cn(C)nc4C(F)(F)F)C3=O)c2c1`, the body weight was 22.4 g and 22.2 g and 22.6 g and 22.5 g and 21.1 g (BALB/c nude mice, MV4-11 xenograft; intraperitoneal, 75 mg/kg, day 17).
For `CN1Cc2cc(Cl)ccc2-n2c(nnc2C2CCN(c3cccc(F)n3)CC2)C1`, the concentration was 15 ng/mL (male Sprague-Dawley rat, plasma; intravenous, 0.03 mg/kg, 5 min).
For `O=C1NC2(CC2)COc2ncc(F)cc2[C@H]2COCCN2c2ccn3ncc1c3n2`, “mean corpuscular volume” read 55.1 ± 1.1 fL (Sprague-Dawley rat, male, blood; oral, 2.5 mg/kg/day, 4 weeks, end of recovery, subacute toxicity).
`N=C(N)NCCC[C@H](NC(=O)[C@H](CCCNC(=N)N)NC(=O)[C@H](CCCNC(=N)N)NC(=O)[C@H](CCC(N)=O)NC(=O)[C@H](CCCNC(=N)N)NC(=O)[C@H](CCCNC(=N)N)NC(=O)[C@H](CCCCN)NC(=O)[C@H](CCCCN)NC(=O)[C@H](CCCNC(=N)N)NC(=O)CNC(=O)[C@H](Cc1ccc(O)cc1)NC(=O)[C@H](Cc1ccccc1)NC(=O)[C@H](Cc1ccccc1)NC(=O)[C@H](Cc1ccccc1)NC(=O)OCC1c2ccccc2-c2ccccc21)C(=O)O` has a zeta potential of 23.7 mV (10 mM PBS; 64 µM, overnight, pH 7.4).

Some of these lines once more:
The tissue uptake of `CSCC[C@H](NC(=O)CNC(=O)[C@H](CCCCN)NC(=O)[C@H](CC(C)C)NC(=O)[C@@H]1CCCN1C(=O)[C@H](CO)NC(=O)[C@H](Cc1c[nH]cn1)NC(=O)[C@H](Cc1c[nH]c2ccccc12)NC(=O)[C@H](CCCNC(=N)N)NC(=O)[C@H](CC(C)C)NC(=O)[C@H](CCCNC(=N)N)NC(=O)[C@H](Cc1c[nH]c2ccccc12)NC(=O)[C@H](CS)NC(=O)CCCCCNC(=O)CN1CCN(CC(=O)O)CCN(CC(=O)O)CCN(CC(=O)O)CC1)C(=O)O` [copper-64 labelled] is reported as 3.17 %ID/g (ex vivo biodistribution; C57BL/6J mice bearing B16-F10 tumours, tumour; intravenous, 1.85 MBq, 18 h).
